Experimental data pooled from the literature.
Numbered parts are unrelated; each lists some results of a single study. Positions count from the first letter of the parent shown.
Sequence of UniProt Q9C0B0 (30-357, looked up): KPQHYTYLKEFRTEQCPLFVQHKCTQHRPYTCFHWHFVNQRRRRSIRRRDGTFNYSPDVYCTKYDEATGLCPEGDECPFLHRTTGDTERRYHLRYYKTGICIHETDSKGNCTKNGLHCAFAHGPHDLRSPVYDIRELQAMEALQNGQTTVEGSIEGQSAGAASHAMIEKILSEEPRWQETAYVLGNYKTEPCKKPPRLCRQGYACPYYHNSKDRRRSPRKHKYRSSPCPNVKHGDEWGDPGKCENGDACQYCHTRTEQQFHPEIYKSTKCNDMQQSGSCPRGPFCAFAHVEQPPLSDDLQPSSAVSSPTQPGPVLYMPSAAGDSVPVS

Sample 1
Target: RNA binding protein fox-1 homolog 2, RRM domain, GST-SBP tag (RBFOX2, Homo sapiens, UniProt O43251-10, residues 100-194)
Technique: RNA Bind-n-Seq
Molecule type: RNA
Medium: in vitro
Tested at: 365 nM
Notes: natural RNA segment, single round, ends assumed
Relative to: no-protein control
Reading: higher = stronger binding
All sequences stand within: GGGAGUUCUACAGUCCGACGAUC … UGGAAUUCUCGGGUGCCAA
Target sequence (chain): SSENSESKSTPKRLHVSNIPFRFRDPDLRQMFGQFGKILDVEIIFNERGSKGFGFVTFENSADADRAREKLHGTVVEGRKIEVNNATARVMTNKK
Oligonucleotide	RBNS enrichment (R)
GUAGAGUUUUUAGAUUACUUUUUCAAUGUAAAUAAUGUAUAUUUAAUGUCACAAGAAAUUGUUUUCUGCAAAUUCUCUAGUAUAGAAAGUUUUGUAGAAGAAAAAUUAUU	0.864
GUACAUGUGAUGUUUGACUGUACCAUCGACUGUUAUGGAAGUUCAGCGUUGUAUGUCUCUCUACACUGUGGUGCACUUAACUUGUGGAUUUUUUAUACUAAAAAUGUAGA	0.504
CCUCCCCCACUGUCUGGGACACAGGACAGGUGUUGCGUCUGACUCUGUCUCCCCCUGUCCAAGAGCUAUAGGCUGGUUGAGGCAAGUGGAACCUUAUCAGUGACUUGGCC	0.414
CUUCAUCAUUGACACUGACCCUAAAGAGGUCACUAGAUUUCUCCAAGGUCCUACCAUCUUAUAUGUGACAUAGUUGUGUCCAGACUCCAGGCCUCUCCUGCUCAGUCUAG	0.227
GAGAAAAAGAUACUGUUGAUAAUCCUGUCAGCUCCUUAGGCACUUCGGAGGCUGAGGCAGGAGAAUCAAAAAUUCAAGGCCACUUAGCAAGACCCCAUGUCAAAAUUAUA	0.574
CACCCAUUAAGUGGCUGCUGACUUAAAUGUGCUGGAACCAGCUGCUGAAGGUGGGGCCUAGGGAGGGGGCACUGAAGCAAUCUCCUGCUCCAACGCACAAUCCUUACUGU	0.832
CCUUUUGCUGUGAGUGACUUAACAGUGCAGGUUCUUGUUGCCUUCACUGUUAACCCUGAGAGCACAUAAUCUGAUGCAUGUGUGACUAAGAAUAAGCCUAUGGUCAUGGG	6.01
GCACUCGUGCUGGGCAUCCUGCCGAAGUGGCCACACUGCCACACUGCUCUGGCUCACGAGUAUUGGAGGACCUGAGCACCUCAGGCCGUGGGUCUGUGUGGGGUGUGUGG	0.532
CACAGCAGCCUCUGAGGAAAGACAAGGACAAGAAGAAGUUUGACCCUCAGCCCGGGACGCCACAAACUGAAGCGAGUUCCCUGCUUUGCUCGUCACAAAUGCCAAACUGA	0.369
ACAUCUGCUCGUUCUUGCCGAGGGUGCAGUGGUGGCGUGGAAGCCCUGUCACCCCACCCCAGGCCACCCUCUCCCAGAGGACGCCAUCUCCCUUACUGUUGCUGGGAGCC	0.391
GUGUCCAUGACAUAGACCCUGCCCUUCCUCUUUGAAUUCUUCCGGGGGAAGGGGUGACUGAACUGGGAGUCCAGGGAGGGAGCUGAGGAGCCCUUACCCUCCCACCACUC	0.247
CCUGUUCAUUCCAAUCUUCUAAUUACAGUGGUUCCUAUCUCAGGGAUACUGGACUUUCUGACGCAGAUGAACAAUUAAGGGGAAAAGCUUCCCUUUUCCCUCUGUGGCAG	0.176

Sample 2
Target: Interferon regulatory factor 5, full length, phosphomimetic (IRF5, Homo sapiens, UniProt Q13568-2, residues 1-514, K96S/S451D/S453D/S456D/S462D)
Technique: protein-binding microarray
Molecule type: double-stranded DNA, one strand shown
Medium: in vitro
Tested at: 250 nM
Notes: 60-bp whole probe
Together with: salmon DNA 0.4 mg/ml
Relative to: random background probes
Reading: higher = stronger binding
All sequences stand within: GCCTAGCAC … GTCTTGATTCGCTTGACGCTGCTG
Oligonucleotide	log fluorescence [z-score]
TCAAGGCTGTGTTTTCACACTGTGCTA	-0.126
TCCTGTTTGATAATTTTTTTGTGCTAG	0.849
GACGATTTCGGGTTTCGGGACGTGCTA	4.96
TCAGGTTTCGGTTTCGGTTAGTGCTAG	11.5
TAAGGTCTCCTTATCCTTTAGTGCTAG	-0.206
TTAGGTTTCGGGACTTGGTTAGTGCTA	5.77
TTTCCTTTATGTCCTGTCTAGTGCTAG	3.38
TTCAGTTTTCCTATGTCATTGTGCTAG	1.48
TGAGGTATCCTTATCCTTTAGTGCTAG	-0.227
GACGGCCTGGGTATCGGGACGTGCTAG	0.0044
CCAAGTCTTGTTTTACAATTGTGCTAG	0.183
GACGGACTGCTACTGATGACGTGCTAG	-0.402
GGCGATCTCAGTATCGAGACGTGCTAG	1.49
GACCATTTCAGTATCGAGACGTGCTAG	3.62
TCAGGTTCCCTTTTCCTTTAGTGCTAG	0.434
TTAGGTATCGGTCTCGTTTAGTGCTAG	6.99
TGGGAGCTCAGGAATCCCACGTGCTAG	-0.814
TTAGGTTTCGGTTTAGGTTAGTGCTAG	10.8
TCAAGACTTTCTTTCAAACTGTGCTAG	2.3
GACGATTTCGGGTTTCGAGAGGTGCTA	5.06
TTAGGTTTCGGGTATCGTTTAGTGCTA	9.23
TTTATTTTCAGTATTACCTCGTGCTAG	4.72
GCAGATTGGGTTTCAGGGCTGTGCTAG	0.246
TTAGGTTTCCTTCTCCTTTAGTGCTAG	1.26
TTAGTTCTCAGTCTCGATTAGTGCTAG	1.24

Sample 3
Target: Prothrombin, mature alpha-thrombin (F2, Homo sapiens, UniProt P00734)
Technique: aptamer microarray, sandwich
Molecule type: DNA with 2'F-ANA
Medium: in vitro
Tested at: 200 nM
Notes: whole 15-mer aptamer, many near background
Together with: Cy3 exosite-II aptamer, 400 nM
Reading: higher = stronger binding
Oligonucleotide: GGTTGGTGTGGTTGG
Modification	mean fluorescence intensity [a.u.]
2'F-ANA at 1 5 6 7 8 9 11 12 13	72.8
2'F-ANA at 1 2 4 9 10 12	58.9
2'F-ANA at 3 8 9 12 13 14 15	587
2'F-ANA at 1 4 6 11 14	49.4
2'F-ANA at 1 2 3 4 5 6 7 9 11 13 15	53.5
2'F-ANA at 2 3 6 7 8 9 10 11 12 14 15	239
2'F-ANA at 2 4 5 6 7 8 10 11 12	51.2
2'F-ANA at 1 2 3 5 7 8 10 13 14 15	45.5
2'F-ANA at 2 4 5 9 12 13 14	49.2
2'F-ANA at 1 2 5 6 8 9 10 11 14 15	62.2
2'F-ANA at 3 5 9 12 14 15	64
2'F-ANA at 1 2 7 8 10 12 13	67
2'F-ANA at 1 7 9 10 11 13 14	45.9
2'F-ANA at 1 2 4 5 6 9 11 12 14 15	92.9
2'F-ANA at 1 2 4 5 7 8 10 11	159
2'F-ANA at 1 4 5 10 11 13	93.3
2'F-ANA at 1 2 9 12 13 14	65.7
2'F-ANA at 1 3 4 5 7 9 10 12 13 15	46.9
2'F-ANA at 1 2 4 8 9 10 11 12 13 14 15	52.9
2'F-ANA at 2 4 10 12	150
2'F-ANA at 1 2 3 5 6 8 10 13 14 15	51.7
2'F-ANA at 5 6 8 9 10 11 15	45.7
2'F-ANA at 3 5 6 7 8 9 10 12 13 14	51.1
2'F-ANA at 1 4 6 7 8 10 11 12	56
2'F-ANA at 1 2 3 4 6 9 13	99.9

Sample 4
Target: CCNF, cyclin fold, Cln2 fusion (human)
Technique: yeast growth competition, sequencing
Medium: yeast
Notes: strong parent motif
Relative to: not given
Reading: higher = stronger binding
Starting sequence: RBL1 docking peptide (human); GSAKRRLFGEDPP
Substitution	normalised enrichment score
GSAKLRLFGEDPP [R5L]	0.513
GSAKRRYFGEDPP [L7Y]	-0.337
GSAKRRLFGEDFP [P12F]	6.91
GSAKRRLFGEEPP [D11E]	6.82
GSAKRRLFGEDPW [P13W]	7.21
GSAPRRLFGEDPP [K4P]	3.49
GSAKRSLFGEDPP [R6S]	4.73
GSAKRRLFYEDPP [G9Y]	8.87
GYAKRRLFGEDPP [S2Y]	7.21
GSAKRRLYGEDPP [F8Y]	3.24
GSAKRRLFGEDPN [P13N]	7.19
GSAKRRLFGEDYP [P12Y]	8.49
GQAKRRLFGEDPP [S2Q]	6.5
GSAKRRLFLEDPP [G9L]	9.45
GSAKRRLFGEDPG [P13G]	7.39
GSIKRRLFGEDPP [A3I]	6.92
GSAKRRLFGEDSP [P12S]	7.81
GSAKRRLFGEDPA [P13A]	6.84

Mixed results
Oligonucleotide	target	assay	system	conditions	scale	endpoint	result
GGGAGUUCUACAGUCCGACGAUCUGUCUGCCUCAUUCUAAAAUUUACACAGCCGACCAUUUGUCAUCCAUGCUGUCCCACAAACCGUUUUUUGUUUACGAUUUAUGACAGGUUUAUGUUACUUCUAUUUGAAUUUCUAUAUUUCAACAGAGGAUUGAGCAUCA	RING finger protein unkempt homolog, zinc fingers 1-6, SBP tag (UNK, Homo sapiens, UniProt Q9C0B0, residues 30-357)	RNA Bind-n-Seq	RNA, in vitro	100 nM, RNA with constant flanks, ends assumed	relative to: input RNA pool, higher = stronger binding	bound/input enrichment	0.58 ratio

A few entries again (sample 2):
Oligonucleotide	log fluorescence [z-score]
TCAAGGCTGTGTTTTCACACTGTGCTA	-0.126
TTAGGTTTCGGTTTAGGTTAGTGCTAG	10.8
TAAGGTCTCCTTATCCTTTAGTGCTAG	-0.206
GACCATTTCAGTATCGAGACGTGCTAG	3.62
GACGATTTCGGGTTTCGGGACGTGCTA	4.96
TTAGGTTTCGGGTATCGTTTAGTGCTA	9.23
